Published values from different studies.
A part holds a random share of what one study measured.

Sample 1 — method: RNA Bind-n-Seq; molecule type: RNA; medium: in vitro; concentration: 365 nM; reference: no-protein control; reading: higher = stronger binding; quantity: RBNS enrichment (R)
Target: RNA binding protein fox-1 homolog 2, RRM domain, GST-SBP tag (RBFOX2, Homo sapiens, UniProt O43251-10, residues 100-194)
Notes: natural RNA segment, single round, ends assumed
Shared flanks, not repeated: GGGAGUUCUACAGUCCGACGAUC … UGGAAUUCUCGGGUGCCAA
Construct (chain): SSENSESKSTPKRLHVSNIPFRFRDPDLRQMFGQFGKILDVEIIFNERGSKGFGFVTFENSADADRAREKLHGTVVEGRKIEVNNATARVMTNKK
CUGCAAAAAAAAAAAAAAAAAAAAAAAAAAAAAAAUCAAAUAAGCCACAAAGCUAAAAGACUGCGCCCCAUUCUGAAGAAGGCACAAGUACAUGGGAGAGUCCUGCCUUA: 1.32
UAAUUCAGGAAUUUGAGUAGAGAUGGGGAACAAGAACCCAGAUGCUGUCCCCUCACCCCCUCUCCUGUAUUUCUCAGGUCCAGUUCAAAUCUAAAAUUCUACUUUUAGAG: 0.327
AAAAGAAUAUUCAUGGCAACGUUGGUCCUUUGAGGGUGGCAUCUCUGGUUUGGAGCUAGGCAGGCUGGCCAUGGGACAGAAAGGGCAGAAAAAAGAUGGAUUUCUGCUGU: 0.846
AGGGACGAGUUUACGAUGGCUUGUGUAGUAAAGCGCACCCUUCGCCUGUCGCUACCUGGGGCUGUGGCAGCGGAAGUGUUUAGUGACAAGUGGGUCUGGGCAGCUUCCCC: 0.802
CCAUACAGUACCUUGUUUAUCUGCUUCUUAAAGAAUCAGCCGAGACACCAUAAAAGAAAUAGGCUUUUUGUGCCUUUUGCUGUUAAUGUUUAAUUUACAAACUGUUUUGG: 0.665
UGGAGGCAGGGGCUGCUGCCUUGUUUCACCUUCCAUGUCAGGCCAGCCUGUCCCUGAAAGAGAAGAUGGCCAUGCCCUCCAUGUGUAAGAACAAUGCCAGGGCCCAGGAG: 0.814
UUUUUACUUCAGCUCAUCCAAAAGCAGCCAGCAGACCGGUUGACUGAGACCGGUCUGUGGCUGUGGGCCCCUUGGUGACCCGCUGCUCUUUUGGAAAUGGGUGACCUGAA: 0.247
ACUUGGAACCAACCCAAAUGUCCAACAAUGAUAGACUGGAUUAAGAAAACGUGGCACAUAUACACCAUGGAAUACUAUGCAGCCAUAAAAAAUGAUGAGUUCAUGUCCUU: 0.347
ACAGACUGCCUGCUCUAGGAUCUCUUGCUGUCUUCUCCUGGUCUCUGGCUUCUGCCUCACCUGCAACAGGUCUGUCUAUACAUCUGUCUGGGUUGCUGUCAUUUCUGUUU: 1.89
AAGCAGCUCCAGUCUCUGAUUUCCAUGGGUCACGUGCUGGGGAUGUGAUGAAGCCUGCAGUCUGCACUGUGUUGCUGAGCACAUGGAUUUCACCACUGGAACACAGGUGU: 13.7
GGGAGGGGAGGGCACGUUCUUGACACAUGGGAACUUCGCUCAGGAGGGCCUCCCCUUCCCCUCUCCCUCAGAGUUUUCACUGCCGUCUCGUCUUUAGAAAGCUGUUUGAA: 0.293
CAGUUACUCAGCCCUUUUUAUUUCCUUGUUUGAGAGGUAUGCAACCUUGCCUUUACCCAAACUUUGUGGUUUACCCCUUCACCUCCCAGGGGCCCCGACUCUUAAGGGGG: 2.9

Sample 2 — method: aptamer microarray, sandwich; molecule type: DNA with 2'F-ANA; medium: in vitro; concentration: 200 nM; together with: Cy3 exosite-II aptamer, 400 nM; reading: higher = stronger binding; quantity: mean fluorescence intensity; oligonucleotide: GGTTGGTGTGGTTGG
Target: Prothrombin, mature alpha-thrombin (F2, Homo sapiens, UniProt P00734)
Notes: whole 15-mer aptamer, many near background
2'F-ANA at 5 6 7 8 9 11 12 14 15: 51 a.u.
2'F-ANA at 3 6 8 9 10 14 15: 431 a.u.
2'F-ANA at 1 2 5 6 9 10 11 12 13 14 15: 48.6 a.u.
2'F-ANA at 1 3 4 6 8 9 10 14: 53.1 a.u.
2'F-ANA at 2 3 5 12: 247 a.u.
2'F-ANA at 1 2 3 5 10 11 15: 80.9 a.u.
2'F-ANA at 4 5 7 8 9 10 11 12 13: 47.8 a.u.
2'F-ANA at 3 4 5 7 9 14: 63.3 a.u.
2'F-ANA at 1 2 5 6 9 11 13 14 15: 45.9 a.u.
2'F-ANA at 1 2 4 6 12 13 14: 55.7 a.u.
2'F-ANA at 1 4 5 6 8 9 12 13 15: 68.3 a.u.
2'F-ANA at 2 3 4 6 7 8 9 11 14: 226 a.u.
2'F-ANA at 1 3 4 6 7 8 10 11 13: 65.4 a.u.
2'F-ANA at 3 4 5 6 7 10 11: 51.5 a.u.
2'F-ANA at 3 6 8 9 14 15: 534 a.u.
2'F-ANA at 3 4 7 11 12 13: 708 a.u.
2'F-ANA at 1 3 4 5 7 9 12: 179 a.u.
2'F-ANA at 1 2 4 5 7 9 15: 98.3 a.u.

Sample 3 — method: RNA Bind-n-Seq; molecule type: RNA; medium: in vitro; concentration: 1 µM; notes: whole 134-nt RNA, ends assumed; together with: 150 mM KCl; reference: input library; reading: higher = stronger binding; quantity: log2 enrichment
Target: Ras GTPase-activating protein-binding protein 1, C-terminal RGG region (G3BP1, Homo sapiens, UniProt Q13283)
UniProt Q13283, sequence (whole entry, looked up): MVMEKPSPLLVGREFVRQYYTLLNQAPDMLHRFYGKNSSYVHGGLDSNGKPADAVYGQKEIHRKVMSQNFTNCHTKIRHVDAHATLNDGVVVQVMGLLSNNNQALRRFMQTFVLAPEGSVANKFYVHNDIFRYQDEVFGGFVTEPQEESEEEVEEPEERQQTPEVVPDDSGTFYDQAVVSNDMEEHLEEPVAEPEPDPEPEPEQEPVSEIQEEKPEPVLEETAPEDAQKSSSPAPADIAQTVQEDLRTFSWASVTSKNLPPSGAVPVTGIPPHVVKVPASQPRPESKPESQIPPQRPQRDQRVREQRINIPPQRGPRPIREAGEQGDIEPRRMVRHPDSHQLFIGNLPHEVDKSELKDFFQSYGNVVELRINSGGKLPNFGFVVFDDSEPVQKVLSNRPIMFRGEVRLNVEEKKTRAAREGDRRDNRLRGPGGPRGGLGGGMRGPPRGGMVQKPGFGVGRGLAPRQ
Shared flanks, not repeated: GGGAGUUCUACAGUCCGACGAUC … UGGAAUUCUCGGGUGUCAAGG
UUCCCGGAGAACUCGAGUAAAUCUAGAAGUUGCCAGGUUUCAGAACUAUUUAUUCCUUUAAUGUGCAGACGAAGGGAACGUCAUCGUUUG: -0.164
CUCAAGUCCUGUGCUACACAUCGUAUGUACCGAAUCGGUGGUUUUUUUGGUGGAAAGUAUUAUGUUACGCCGUUCGGAUCUGCACUUCCA: -0.737
UGUGCUACACAUCGUAUGUACCGAAUCGUGUGUGUGUGUGUGUGUGUGUGUGUGUGUGUGUGUAAAGUAUUAUGUUACGCCGUUCGGAUC: 1.72
GCAGGAAAAAAAAACAAAUGGAAAUGCUUCGGAUAGUGGCAGGGGUGGGGGUUGCUAAGGAAAGGGUGGGAUGGGAGUGGGUAAAGAGUU: 1.85
AGUCCUGUGCUACACAUCGUAUGUACCGAAUCGGGGUGGGGUUUUUUUGGGGUGGGGAAAGUAUUAUGUUACGCCGUUCGGAUCUGCACU: 1.73
UGGGAGGUGGAUUGUGUUUAUUUUUUUAGCUCAUUUCCAGGGGUGGGAAUUUUUUUUUAAUAUGUGUCAUGAAUAAAGUUGUUUUUGAAA: 3.3
CAAGUCCUGUGCUACACAUCGUAUGUACCGAAUCAAAUUUAAACCCAAAUUUAAAAAAGUAUUAUGUUACGCCGUUCGGAUCUGCACUUC: -0.982
CACAGACAACACGCACCCACACAGACACAGAGGGAGGGGGUUGGGAUGGGGACAGGGUGCACAGCAGGGCGGGGUAGGACCCCAGCCCCU: -0.0803
UGGCCCUGGUGGCAUGCGGGGAGAAAGAGGUGGCCUCAUGGAUCGUGGUGGUCCCGGUGGAAUGUUCAGAGGUGGCCGUGGUGGAGACAG: 2.6
UAACUUUAGAGGAGGAUCUGAUGGAUAUGGCAGUGGACGUGGAUUUGGCGAUGGCUAUAAUGGGUAUGGAGGAGGACCUGGAGGUGGCAA: -0.741
UGCUGUGCAGCGGCAUCGGCCCACUGUGGUGGAAUGUCUACGGGAAACUGAUGCCUCCCUCAGCCGGUGAGCAGUGAUAGAGGGGACAGG: -2.39
UUACUUUAGAGGAGGAUCUGAUGGAUAUGGCAGUGGACGUGGAUUUGGGGAUGGCUAUAAUGGGUAUGGAGGAGGACCUGGAGGUGGCAA: -1.15
ACCAUGCAGGUGAGCAUCUUUGGGAAGUGGGGCAAGGGGGGGAUAGGGAGGGGGGUAACACUUUGGGAACAGGUGGUCCCAGGUCGUUUC: -1.39
UUCCCUGAAGAUGAGAUCCCAGAGAAGGCCUGCAGGCGCCUGCUUGAAGGGAGGCGGCAGAAGAAGACGAAGAAGCAGAAGCGUCUGCUC: -0.87

Sample 4 — method: protein binding microarray; molecule type: double-stranded DNA, one strand shown; medium: in vitro; concentration: not given; reference: not given; reading: higher = stronger binding; quantity: E-score
Target: Histone acetyltransferase KAT6A, winged helix 1, GST fusion (KAT6A, Homo sapiens, UniProt Q92794, residues 1-85)
Notes: 8-mer, flanks averaged, mean of 2 arrays, mostly near background
Residues (chain): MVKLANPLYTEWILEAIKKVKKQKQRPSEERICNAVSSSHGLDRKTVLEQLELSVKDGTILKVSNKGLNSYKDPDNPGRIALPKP
GTCAGTCA: -0.153
ATTTAGCG: 0.139
CATGAACC: -0.0258
ACCCGGCC: 0.336
GCGAACGA: -0.0419
GAAATGTC: -0.115
GTATAAAA: 0.173
CCACCGGA: 0.134
ACGTTTGC: -0.00379
GAATTTGA: -0.0638
CACACAAA: -0.286
ACCCGAAG: 0.00266
AAATACTC: -0.1
GGGCCTAC: 0.0611
AATCGCCA: -0.0365
AGGGCTAG: -0.135
GCCATTCA: 0.00379
CACATATC: -0.0473
GAGAACAA: 0.0248
CGTTAGAG: 0.0456
ACGTCTAG: -0.226
GGTTATGA: -0.129
AGGGTGAT: -0.207
CGTATAGC: 0.203
GGCTGTAC: 0.00641
